Measured values gathered from unrelated publications.
Values joined by “and” are separate records of one study, mostly repeats; a detail may differ. ± marks the error that the study gave.
Genome polyprotein NS3 helicase domain: Genome polyprotein, NS3 helicase domain (Hepatitis C virus genotype 1b, UniProt Q9WMX2)
SRC SH3-SH2-kinase domain: Proto-oncogene tyrosine-protein kinase Src, SH3-SH2-kinase domain (SRC, Gallus gallus, UniProt P00523)
Palmitoyl-protein thioesterase 1: Palmitoyl-protein thioesterase 1 (Homo sapiens, UniProt P50897)

`Nc1nc(-c2ccc(Cl)cc2)cs1` gave an IC50 of 51.2 µM and 51 µM (Capsid scaffolding protein, protease domain (Human herpesvirus 8 type P, UniProt Q2HRB6); protease activity, inhibitor; together with: fluorogenic peptide substrate).
With `CCCCCCCCCCCCCC(=O)OCC(O)COC1OC(CS(=O)(=O)O)C(O)C(O)C1O` (stereo not drawn) the IC50 was 11 µM and 9.1 µM (DNA polymerase (POLA1, Bos taurus, UniProt A0AAA9TD94); enzyme activity, inhibitor, radiometric).
`CN1CCN(C(=O)c2ccc(-c3ccc4c(c3)/C(=C/c3ccc(N5CCNCC5)cc3)C(=O)N4)cc2)CC1` has an IC50 of 0.0565 µM (FGFR3 (Homo sapiens, UniProt P22607); enzyme activity, inhibitor).
`Cc1ccc2nc(-c3ccc4nc(-c5ccc6nc(-c7ccc8nc(-c9ccc(N)cc9)sc8c7)sc6c5)sc4c3)sc2c1S(=O)(=O)O` gave an IC50 of 5 ± 3 µM (Genome polyprotein NS3 helicase domain; ATPase activity, inhibitor, malachite green).
`COc1ccc(C(C)=O)cc1CC(=O)N1CCC(C(=O)Nc2ccc(Br)cn2)CC1` gave an IC50 of about 25 µM (Trypanothione synthetase (Trypanosoma brucei brucei, UniProt Q586P2); enzyme activity, BIOMOL Green phosphate release; 1 h preincubation).
`Cc1ccccc1-c1cc(N2CCN(C(=O)[C@@H](N)CCCNC(=N)N)CC2)ccc1N(C)C(=O)C(C)(C)c1cc(C(F)(F)F)cc(C(F)(F)F)c1` has an IC50 of 0.437 µM (TACR1 (Homo sapiens, UniProt P25103); nuclear ERK activity, antagonist, FRET biosensor; HEK293T; 30 to 90 min preincubation, together with: substance P 10 nM).
For `Cc1ccc2nc(-c3ccc(N=NNc4ccc(-c5nc6ccc(C)c(S(=O)(=O)O)c6s5)cc4)cc3)sc2c1S(=O)(=O)O`, the IC50 was 12 ± 3.6 µM (Genome polyprotein NS3 helicase domain; helicase activity, molecular beacon helicase; together with: DNA substrate).
`O=C(Cn1cc([N+](=O)[O-])cc(Br)c1=O)c1cc2cc(Cl)ccc2[nH]1` has an IC50 of 4.55 ± 0.16 µM (DNA repair protein RAD52 homolog, with RPA and ssDNA (RAD52, Homo sapiens, UniProt P43351); inhibitor, FRET).
`NC(=O)c1ccc(C[C@@H]2NC(=O)[C@H](Cc3ccccc3)NC(=O)[C@H](CC3CCCCC3)NC(=O)/C=C/C(=O)N[C@H](C(N)=O)CCCNC2=O)cc1` has an IC50 of 0.036 ± 0.004 µM (SRC SH3-SH2-kinase domain; enzyme activity, inhibitor, Z'-LYTE FRET; Src residues 83-533, together with: 50 µM ATP).
`CC(C)C[C@H](NC(=O)[C@H](Cc1c[nH]cn1)NC(=O)[C@H](CC(=O)O)NC(=O)[C@H](CCCNC(=N)N)NC(=O)[C@H](CO)NC(=O)[C@@H]1CCCN1C(=O)[C@H](CCCNC(=N)N)NC(=O)[C@H](CCC(=O)O)NC(=O)[C@H](C)NC(=O)[C@@H](N)Cc1ccc(O)cc1)C(=O)N[C@@H](Cc1ccc(O)cc1)C(=O)N[C@@H](CC(C)C)C(=O)N1CCC[C@H]1C(=O)N[C@@H](CC(C)C)C(=O)N[C@@H](CCC(=O)O)C(=O)N1CCC[C@H]1C(=O)O` has an IC50 of over 100 µM (Mitogen-activated protein kinase 14 (Rattus norvegicus, UniProt P70618, E160S/E163T/N159K); kinase activity, inhibitor, competitive kinase).
For `CC(C)n1nc(-c2ccc3cc(OCc4cccc(Cl)c4)ccc3c2)c2c(N)ncnc21`, the IC50 was 0.063 µM (Tyrosine-protein kinase HCK, SH2 (HCK, Homo sapiens, UniProt P08631, Q523E/Q524E/Q525I); enzyme activity, inhibitor).
For `C/C(=N\NC1=NC(=O)CS1)c1ccc2c(c1)sc1nc(=O)c(C#N)cn12`, the IC50 was 1.88 µM (DNA gyrase (gyrA/gyrB, Escherichia coli, UniProt P0AES4+P0AES6); enzyme activity, inhibitor).
For `CC(=O)Nc1ccc(S(=O)(=O)NCc2nc(-c3ccccc3C)no2)cc1`, the IC50 was 1.7 µM (Trypanothione synthetase (Trypanosoma brucei, UniProt Q586P2); enzyme activity, inhibitor).
`CCOC(=O)N1CCN(Cc2nc3c(c(=O)n(C)c(=O)n3C)n2CCC(C)C)CC1` gave an IC50 of over 57 µM (ALDH1B1 (Homo sapiens, UniProt P30837)).
For `CC(=O)Nc1ccc(S(=O)(=O)NCc2nc(-c3ccccc3Cl)no2)cc1`, the IC50 was 3.7 µM (Trypanothione synthetase (Trypanosoma brucei, UniProt Q586P2); enzyme activity, inhibitor).
`COc1c(C(=O)/C=C/c2ccc(F)cc2)c(O)c(OC)c2occc12` gave an IC50 of over 10 µM (Cytochrome P450 1B1 (CYP1B1, Homo sapiens, UniProt Q16678); enzyme activity, inhibitor; 15 min, pH 7.4).
With `NC(=O)[C@@H]1CCCNC(=O)[C@H](Cc2ccc([N+](=O)[O-])cc2)NC(=O)[C@H](Cc2ccccc2)NC(=O)[C@H](Cc2ccccc2)NC(=O)/C=C/C(=O)N1` the IC50 was 0.22 ± 0.005 µM (SRC SH3-SH2-kinase domain; enzyme activity, inhibitor, Z'-LYTE FRET; Src residues 83-533, together with: 50 µM ATP).
`CCCCCCCCCCCCCCCC(=O)NC[C@H](NC(=O)CNC(=O)CCNc1ccc([N+](=O)[O-])c2nonc12)C(=O)N[C@H](C(=O)N[C@@H](CCCCN)C(=O)N[C@H](C(=O)N[C@@H](CCCCN)C(=O)N[C@@H](CCCCN)C(N)=O)[C@@H](C)CC)C(C)C` has an IC50 of 8 µM (Palmitoyl-protein thioesterase 1; enzyme activity, inhibitor; lymphoblast or fibroblast lysate; pH 4.7, together with: MUGS-palmitate).
`C[C@]12CCC(=O)C=C1CCC1C2CC[C@]2(C)C(c3cccnc3)=CCC12` (stereo partly drawn) has an IC50 of 0.019 µM (HSD3B1 (Homo sapiens, UniProt P14060); enzyme activity, measured: androstenedione; LNCaP and VCaP; together with: [3H]-DHEA).
The IC50 of `CCC(CC)[C@H](NC(C)=O)[C@@H]1[C@H](O)[C@@H](C(=O)OCCOC(=O)[C@@H](N)C(C)C)C[C@H]1NC(=N)N` is reported as 1340 µM (SLC15A1 (Homo sapiens, UniProt P46059); transporter uptake, inhibitor).
With `O=S(=O)(Nc1cscn1)c1c(F)cc(NCc2c(F)ccc(F)c2CN2CCC2)cc1F` the IC50 was 0.0376 µM (SCN8A (Homo sapiens, UniProt Q9UQD0); tonic ion current block, inhibitor, patch clamp; held at V0.5, first pulse).
`S=c1[nH]nc(Cn2nnc3ccccc32)n1/N=C/c1cccs1` gave an IC50 of 263 µM (XDH (Bos taurus, UniProt P80457); enzyme activity, inhibitor).
`C#CCO[C@H](C(=O)O)[C@H](N)C(=O)O` (racemic) has an IC50 of 12.6 µM (Excitatory amino acid transporter 4 (Rattus norvegicus, UniProt O35921); transporter uptake, inhibitor, radiometric).
With `CCCCn1c(NN)nc2cc3ccccc3cc2c1=O` the IC50 was 9.08 µM (Genome polyprotein, protease (Hepatitis C virus genotype 1b, UniProt O92972); enzyme activity, inhibitor, FRET).
For `CCCCCC/C=C/C=C\C=C\C=C\[C@@H](O)[C@@H](O)CCCC(=O)O`, the IC50 was about 0.1 µM (FPR2 (Homo sapiens, UniProt P25090); ligand displacement in cells, radioligand).
`CNC(=O)N(C)c1ccc(C(=O)Nc2ccc(Cl)cc2C(=O)Nc2ccc(Cl)cn2)cc1` gave an IC50 of 0.00025 µM (F10 (Homo sapiens, UniProt P00742); enzyme activity, inhibitor, absorbance).
The IC50 of `NOCC(=O)O` is reported as 1.09 µM and 1.1 µM (CTH (Homo sapiens, UniProt P32929); inhibitor, methylene blue; 60 min, 37 °C, together with: L-cysteine 1 mM).
The IC50 of `CC(=O)Oc1ccc(OC(C)=O)c2c1CC1=C(C2)C(C)(C)CCC1` is reported as over 100 µM (DNA topoisomerase IB (Leishmania donovani, UniProt A0A3Q8IHS4+Q8WQM6); DNA relaxation activity, inhibitor; together with: supercoiled plasmid DNA).
`COC(=O)[C@H](CC(C)C)NC(=O)[C@@H]1CCCN1C(=O)[C@@H](NC(=O)[C@H](CCC(=O)C=[N+]=[N-])NC(=O)OCc1ccccc1)C(C)C`: IC50 “increased” (Protein-glutamine gamma-glutamyltransferase E, isoform 3 (Homo sapiens, UniProt Q08188); inhibitor; relative to: TG2).
`NC(=O)[C@@H]1CCCNC(=O)[C@H](Cc2ccc(Cl)cc2)NC(=O)[C@H](Cc2ccccc2)NC(=O)[C@H](CC2CCCCC2)NC(=O)/C=C/C(=O)N1` has an IC50 of 0.047 ± 0.007 µM (SRC SH3-SH2-kinase domain; enzyme activity, inhibitor, Z'-LYTE FRET; Src residues 83-533, together with: 50 µM ATP).
`CCC(C)NC(=O)Cn1nc(C(F)(F)F)c2c1CCCC2` (stereo not drawn) gave an IC50 of 12 µM (Trypanothione synthetase (Trypanosoma brucei, UniProt Q586P2); enzyme activity, inhibitor).
`COc1ccc(N2CCN(C(=O)ON3C(=O)C4CN(CC5CCN(Cc6ccccc6)CC5)CCN4C3=O)CC2)cc1` (stereo not drawn) has an IC50 of 1.26 µM (Palmitoyl-protein thioesterase 1; enzyme activity, inhibitor).
With `CCc1cccc(Nc2c(C(N)=O)cnc3c(C)cc(-c4ccc5cnn(C)c5c4)cc23)c1` the IC50 was 12.1 ± 3.2 µM (cAMP phosphodiesterase B2 (Trypanosoma brucei, UniProt Q38F42); inhibitor).
